Measured values pooled from the literature.
Each numbered part is a random draw from the data of one study; scales do not carry over between parts. Positions count from the first letter of the parent shown.

Series 1 — target: CCNB1, cyclin fold, Cln2 fusion (human); method: yeast growth competition, sequencing; medium: yeast; notes: strong parent motif; relative to: not given; reading: higher = stronger binding; endpoint: normalised enrichment score
Starting sequence: E2F1 docking peptide (human); PPVKRRLDLETDH; partner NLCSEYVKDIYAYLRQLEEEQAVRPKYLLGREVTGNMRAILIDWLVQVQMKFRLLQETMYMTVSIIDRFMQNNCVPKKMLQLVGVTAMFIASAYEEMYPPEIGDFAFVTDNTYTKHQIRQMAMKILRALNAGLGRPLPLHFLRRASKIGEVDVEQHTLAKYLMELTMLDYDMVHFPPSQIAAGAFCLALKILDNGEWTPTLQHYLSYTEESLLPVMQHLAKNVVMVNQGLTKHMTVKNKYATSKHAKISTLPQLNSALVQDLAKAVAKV
PPVKRRLPLETDH [D8P]: 0.339
PPHKRRLDLETDH [V3H]: 0.211
PPVKRRLDLETLH [D12L]: 1.11
KPVKRRLDLETDH [P1K]: 1.55
PPVKRDLDLETDH [R6D]: -0.23
PPVKRILDLETDH [R6I]: 0.323
PPVKRRLCLETDH [D8C]: 0.673
PPVKRGLDLETDH [R6G]: 0.731
PPVIRRLDLETDH [K4I]: 2.38
PAVKRRLDLETDH [P2A]: 0.146
PPIKRRLDLETDH [V3I]: 0.266
TPVKRRLDLETDH [P1T]: 0.835
PRVKRRLDLETDH [P2R]: 0.654
PPVKRRLDLETDF [H13F]: 0.765
PPVKRRHDLETDH [L7H]: 0.693
PLVKRRLDLETDH [P2L]: -0.00132
PPKKRRLDLETDH [V3K]: 0.613

Series 2 — method: EMSA with sequencing; form: double-stranded DNA, one strand shown; medium: in vitro; tested at: 10 and 20 nM; relative to: negative control set to 0; reading: higher = stronger binding; endpoint: normalised bound fraction
Target: Hepatocyte nuclear factor 3-alpha (Foxa1, Mus musculus, UniProt P35582, residues 1-468, full length assumed)
Notes: whole designed probe, mean of two concentrations, ends assumed
Constant ends, left off below: GTGAGCGGTGCCCATTGATGGGGAAC … TTTCACTGGGATCGTGGGGAC
Target sequence (chain): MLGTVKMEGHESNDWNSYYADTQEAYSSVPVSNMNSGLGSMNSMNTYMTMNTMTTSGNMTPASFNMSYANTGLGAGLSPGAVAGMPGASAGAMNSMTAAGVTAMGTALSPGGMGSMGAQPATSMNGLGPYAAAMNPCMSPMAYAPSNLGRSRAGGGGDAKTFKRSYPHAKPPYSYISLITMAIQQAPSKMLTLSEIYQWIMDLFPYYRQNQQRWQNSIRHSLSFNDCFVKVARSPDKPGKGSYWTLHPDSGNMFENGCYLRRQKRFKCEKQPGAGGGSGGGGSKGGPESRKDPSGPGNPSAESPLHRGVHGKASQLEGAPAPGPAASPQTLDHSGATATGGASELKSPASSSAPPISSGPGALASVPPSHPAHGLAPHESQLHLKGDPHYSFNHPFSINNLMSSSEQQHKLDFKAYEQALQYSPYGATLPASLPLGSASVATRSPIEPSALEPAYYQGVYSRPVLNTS
AATTTTTATTTGAAGGTGCCATTTTTCAACATATTCAGATGCTTGTGAGTGCCATTGATTCTGTATCATATGAACAATGGCAATACCTTCCATGTTTACATAATATTAAAAACCATGTTAAGACTGAATATTTGGTGTAATGGTGCATCACATTATTCTAGCTTCCATACTAGTTGTTTTATTTGTTTGTTTT: 0.544 ratio
TAAATAGCTGTCTGTGGGAGAGATGACACTGTTGCTATTCAGTGGACTCTAGATATGCAGCCAGATGAACTTTGTGAAGATGAACTTATCAGTGTAATTTAGGAAAGTGGTTGTGATGAAAAGCATGAATGTTCCAGGGGAAATGACTCTGGCAAATTTTTCACATTAAAGGAACTCTTGGAGATACTTCACA: -0.0609 ratio
AGGTAGATCAAGTACTCATATCTCTATGTACAGATGACAATAAGTGATTTCTCAGGAGCAAACAAGGGGAGTTATTGTGATTGTCTGATGGTTTGTTTACTCTGAGACTTACTCTGTTTCAACTTTCCACCTTTTCTTTATTTTCCGTCCCAGACAGAAAGATTCTTCTTCTAGATAGACTGTTACTTCTACT: 0.416 ratio
AACAAACAAATAAAACAACTAGTATGGAAGCTAGAATAATGTGATGCACCATTACACCAAATATTCAGTCTTAACATGGTTTTTAATATTATGTAAACATGGAAGGTATTGCCATTGTTCATATGATACAGAATCAATGGTACTCACAATCATCTGAATATGTTGAAAAATGGCATCTTCAAATAAAAATTAT: 0.491 ratio
TCCTCATTAAATTTCAAGTTTCCACAAAATAAGAAAAGAAACAACTAAAGAAGAAATTGTTGGAAGGCATGGAGCAAAGTGTAAGAACAACTAAGTAATCTTGTACATTTTGCATTTTTAAAAAATTCAGTGGCCATAATACCACTGGCCAACAGGCTGATCAAATAATCCCTGAAACAAAGAGTTATATGTT: 0.0812 ratio
CCAGGGACAATGTGCAGTTGTTGGTCCTGGGTCTTTGACAGACTCCAGGTCAAAGGCAAGACACCGTGAGAAGGGAAAGGATCAAGTCTGTGAGCAAACACCATCAGCCTTGCAATTTGATGGTGGCCTCAAGGAGACATTGGGCGTGTGTTTAAACAAGCAAGGAAGGCAGCTGTACAAGTGCCCTAATCTG: 0.213 ratio
ATCTTCCCCCTCTTCCTTGCCCCACCAGCTCACCTTCCCGGGTTGTTTACTTTGAGCAAAGTAAACAAAGCCGGCATTCGTTAACCCTCTTCACGCGCATACTGCACATTGGTCTGGATCTAACATGGTCCTTTGGCGACGCCAGGCTCCGGGAGAGCAAAGCACCGTGTCAGGGCCATGATCCGGGGTGGCC: 0.538 ratio
TCCACAGTAGAAACGAAGGAGATGACAGATACCCCGGCACCAAAACTGACACCAGGTTTTTGTTGCTTCTTCCACTATATAATGGAGAAGTTCTGTTTACTCTATACTGTTAGTTGTGCAACACATTGGCTTAAGGAAACCCAAGAAACTGAATCACATCAAAGGTATGTCAGAGGTATGTGAACCAGAGCAA: 0.3 ratio

Series 3 — method: universal PBM; form: double-stranded DNA, one strand shown; medium: in vitro; tested at: 600 nM; reading: higher = stronger binding; endpoint: E-score
Target: Sal-like protein 4, full length isoform A (SALL4, Homo sapiens, UniProt Q9UJQ4, residues 1-1053)
Sequence of UniProt Q9UJQ4 (whole entry, looked up): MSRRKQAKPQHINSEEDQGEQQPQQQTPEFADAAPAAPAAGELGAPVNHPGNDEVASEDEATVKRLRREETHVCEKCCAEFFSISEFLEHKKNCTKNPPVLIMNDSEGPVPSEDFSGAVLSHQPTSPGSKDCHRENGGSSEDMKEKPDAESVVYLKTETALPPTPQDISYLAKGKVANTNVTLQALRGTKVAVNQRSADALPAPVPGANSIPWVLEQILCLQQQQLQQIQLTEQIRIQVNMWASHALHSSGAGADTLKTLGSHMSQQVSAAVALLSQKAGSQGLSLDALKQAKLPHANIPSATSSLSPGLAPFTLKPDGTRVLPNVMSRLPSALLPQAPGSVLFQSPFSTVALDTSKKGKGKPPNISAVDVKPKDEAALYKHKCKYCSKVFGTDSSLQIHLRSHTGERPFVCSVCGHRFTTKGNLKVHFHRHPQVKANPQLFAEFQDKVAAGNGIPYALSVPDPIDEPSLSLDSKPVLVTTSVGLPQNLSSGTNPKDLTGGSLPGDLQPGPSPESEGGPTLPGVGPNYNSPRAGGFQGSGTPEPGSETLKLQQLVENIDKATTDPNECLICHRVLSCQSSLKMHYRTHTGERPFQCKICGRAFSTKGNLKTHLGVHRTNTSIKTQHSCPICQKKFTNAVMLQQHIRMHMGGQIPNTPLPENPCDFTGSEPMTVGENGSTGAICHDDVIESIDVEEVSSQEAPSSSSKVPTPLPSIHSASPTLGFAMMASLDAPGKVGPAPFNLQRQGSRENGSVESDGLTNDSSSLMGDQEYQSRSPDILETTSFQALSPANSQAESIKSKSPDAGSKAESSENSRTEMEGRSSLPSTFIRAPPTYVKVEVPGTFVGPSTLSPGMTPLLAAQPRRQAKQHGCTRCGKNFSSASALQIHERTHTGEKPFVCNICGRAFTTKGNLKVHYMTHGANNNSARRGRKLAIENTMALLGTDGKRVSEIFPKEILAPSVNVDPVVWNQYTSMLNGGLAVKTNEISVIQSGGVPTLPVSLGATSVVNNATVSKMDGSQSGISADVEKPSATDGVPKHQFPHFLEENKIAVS
Notes: 8-mer, flanks averaged, mean of replicates
GACCCAAC: -0.169
ACGTATGC: 0.0528
ATGATCAC: 0.156
GAGTCACA: -0.0279
CATCCATC: -0.087
CCCGGAAG: -0.274
AAGTCTGG: -0.148
ACAGAAGA: 0.0564
CTGGAAGC: -0.288
CTGTCCCC: -0.364
ACCCCAGG: -0.369
GGCCGGCA: -0.275
CTCAACTC: -0.016
AGCACGCG: -0.111
CACGATAC: 0.0493
GAACCGGA: -0.161
CTGATGCA: -0.0067
GCGTAGCC: -0.29
CTGCCCTA: -0.173
AAACGAAG: 0.0906

Series 4 — method: RNA Bind-n-Seq; form: RNA; medium: in vitro; tested at: 365 nM; relative to: no-protein control; reading: higher = stronger binding; endpoint: RBNS enrichment (R)
Target: RNA binding protein fox-1 homolog 2, RRM domain, GST-SBP tag (RBFOX2, Homo sapiens, UniProt O43251-10, residues 100-194)
Notes: natural RNA segment, single round, ends assumed
Constant ends, left off below: GGGAGUUCUACAGUCCGACGAUC … UGGAAUUCUCGGGUGCCAA
Target sequence (chain): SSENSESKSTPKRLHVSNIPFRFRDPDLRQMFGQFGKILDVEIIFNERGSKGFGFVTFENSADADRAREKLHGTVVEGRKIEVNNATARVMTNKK
UAAUUGCUGUUGAAAGCAAAAAUGCUAAUAUUAAAAGUCACAGUGUUCUUUAUAUACAAUAAUGGAAAAAAAAAAAAGAGGCAAUUCCUCAAGGGCAUGAGCGGUGGAUA: 0.649
CUCAGCCCUGGUGGCGGCAGAGAAGCGGGCGAGGCACUGUGGUCGCUGAGGGGGUUGGCUGGGUCUGAGUGCCACCCCCCAGGCCACAGUGAUACCAUCCCAGUGCCAUG: 0.727
UUCCCUCUUUUUAAACUACAUUGUGUUAGAGUCAUAGUCUAGGAUCCUGAGAGAUUUUCCAUUCUUGUCACCAUUCACUUGCAUUGUAAAGAUUUUCUUUGUCUGUUGUU: 0.615
CCUCUGCAGCCAGAUUUCUAUAUUGGGAGUUUUUUAAAAAGACAUUUCAUAGCCAACAAGAAUCAGUAGAAGUGCUGGGAGCAGCAGCUGGGGAAGCUGCCGCCCACGGG: 0.548
AUAAGAACACUAGCCCAAAAGGUCUAUGCAGUAGUUAAGUAGUGCUUUUGCUUAUUAUAGGGUGCUCUGAGGGUCUUCUCUGUGUCCUCUGACCCAAGACAAAAUGCACA: 0.39
UUGCAAGCUAAUCUAUUUGGCAAAAAAAUAGUCCCAGUUGUUCAACUAGCUCCCUUAAAACAUUCUAGUAGGUGUUUUAAAGCCUAGGUAUCGCUGCCUCUUUAGUUCUU: 0.356
UGUGUCCAAUAGCAAGUUAAGGAACCUAGCGCAUCAAAUUUUGUUUUCUUCAUUCAUUUGGAACCUUAUUUUCGCAAAAAACCUAGCUGGAAUAAUAAUGCCAUAUUGUA: 1.21
UGGGCUUUAGUUCCUCUCAUAAAAGGAAGAGAUGUAUUGGAUUAGACUAGAUGAUCACCACUUUCUCUUCUAGUUCUAAUUUUUUUAAUUCUAAUACCUAUAUUUUCAAG: 0.589
UUGGUAAUGGUGUUGUGGCCUCAGAUUUCUUCUAGUAUUUGCUUCUGAUGAAUGAUUAUGGUCUAUACAUAAAAAAGUAAGACUAAGUAUUGCUGAAUUUGCAGUUAUGU: 1.12
GUUUAGUUUUGUGUGUAUCUUACAGUAUGCAUGUUCUGAAAUUAUUUGUGAUCCUGAUAUGUCACAUAUAAUAGCUUUGUUACCUGGAGUAUUUGAUUAACCUAAACAGU: 2.39
CUAGUGAUCCCAGCCCAAGAGGUUCAGGGAAGUCUUAUGAAGGAUUUGUCUCAGCUGAGCCUGACAGGACAAGCAUAUAGAAAGACAAGAGGGGGAGAGAGCAGGGCAUU: 0.879
AAGGACAGGACUUGCGACCUUGAAGCCAAAGGAAUCUCACUUGUGGGGCCUCCUUGUCAGCUCUGCUGCUGUCUCAGAGCCAUCUGGAUGAGUGUCCCGACACCCUCUCG: 0.378

For quick reference, copied from above (series 3):
ACGTATGC: 0.0528
AAGTCTGG: -0.148
CTGATGCA: -0.0067
CACGATAC: 0.0493
CCCGGAAG: -0.274
GGCCGGCA: -0.275
